# Measured values from different studies.
# Parts stem from different laboratories: compare values within a part only.
# Sequence of UniProt Q59H18 (whole entry, looked up): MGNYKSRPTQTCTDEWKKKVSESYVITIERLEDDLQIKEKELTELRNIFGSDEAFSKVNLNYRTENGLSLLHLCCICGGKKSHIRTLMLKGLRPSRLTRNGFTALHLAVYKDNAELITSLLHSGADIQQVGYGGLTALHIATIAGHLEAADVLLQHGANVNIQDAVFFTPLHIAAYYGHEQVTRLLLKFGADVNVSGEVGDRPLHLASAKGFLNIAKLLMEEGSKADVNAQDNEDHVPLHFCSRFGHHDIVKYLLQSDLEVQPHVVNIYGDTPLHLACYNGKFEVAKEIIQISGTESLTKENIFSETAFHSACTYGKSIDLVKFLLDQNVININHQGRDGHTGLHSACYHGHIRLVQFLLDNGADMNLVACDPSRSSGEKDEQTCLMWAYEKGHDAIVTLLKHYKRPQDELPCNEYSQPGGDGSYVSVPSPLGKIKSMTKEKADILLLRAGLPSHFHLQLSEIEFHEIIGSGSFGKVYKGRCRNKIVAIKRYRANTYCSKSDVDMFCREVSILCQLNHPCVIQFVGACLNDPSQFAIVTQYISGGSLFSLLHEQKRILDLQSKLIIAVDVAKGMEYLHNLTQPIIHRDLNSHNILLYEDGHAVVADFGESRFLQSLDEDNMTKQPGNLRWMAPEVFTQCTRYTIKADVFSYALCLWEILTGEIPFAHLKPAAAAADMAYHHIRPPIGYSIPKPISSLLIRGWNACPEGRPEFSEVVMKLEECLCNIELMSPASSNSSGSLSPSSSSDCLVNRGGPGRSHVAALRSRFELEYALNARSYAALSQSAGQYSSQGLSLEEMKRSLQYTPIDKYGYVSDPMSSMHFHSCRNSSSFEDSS
# Sequence of UniProt P51451 (whole entry, looked up): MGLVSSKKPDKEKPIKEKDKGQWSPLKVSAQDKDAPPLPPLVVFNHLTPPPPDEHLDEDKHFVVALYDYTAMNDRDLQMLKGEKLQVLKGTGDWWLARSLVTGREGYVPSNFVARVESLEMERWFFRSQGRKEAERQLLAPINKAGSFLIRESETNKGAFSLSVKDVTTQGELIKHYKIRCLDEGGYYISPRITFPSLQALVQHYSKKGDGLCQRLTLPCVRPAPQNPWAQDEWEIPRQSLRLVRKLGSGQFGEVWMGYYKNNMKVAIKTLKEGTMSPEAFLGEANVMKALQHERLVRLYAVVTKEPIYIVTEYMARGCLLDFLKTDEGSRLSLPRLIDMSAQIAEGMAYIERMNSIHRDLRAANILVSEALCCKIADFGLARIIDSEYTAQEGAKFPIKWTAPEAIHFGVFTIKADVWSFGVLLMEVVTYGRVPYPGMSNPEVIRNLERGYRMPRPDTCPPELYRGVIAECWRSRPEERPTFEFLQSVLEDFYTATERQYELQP
# Sequence of UniProt P42684 (whole entry, looked up): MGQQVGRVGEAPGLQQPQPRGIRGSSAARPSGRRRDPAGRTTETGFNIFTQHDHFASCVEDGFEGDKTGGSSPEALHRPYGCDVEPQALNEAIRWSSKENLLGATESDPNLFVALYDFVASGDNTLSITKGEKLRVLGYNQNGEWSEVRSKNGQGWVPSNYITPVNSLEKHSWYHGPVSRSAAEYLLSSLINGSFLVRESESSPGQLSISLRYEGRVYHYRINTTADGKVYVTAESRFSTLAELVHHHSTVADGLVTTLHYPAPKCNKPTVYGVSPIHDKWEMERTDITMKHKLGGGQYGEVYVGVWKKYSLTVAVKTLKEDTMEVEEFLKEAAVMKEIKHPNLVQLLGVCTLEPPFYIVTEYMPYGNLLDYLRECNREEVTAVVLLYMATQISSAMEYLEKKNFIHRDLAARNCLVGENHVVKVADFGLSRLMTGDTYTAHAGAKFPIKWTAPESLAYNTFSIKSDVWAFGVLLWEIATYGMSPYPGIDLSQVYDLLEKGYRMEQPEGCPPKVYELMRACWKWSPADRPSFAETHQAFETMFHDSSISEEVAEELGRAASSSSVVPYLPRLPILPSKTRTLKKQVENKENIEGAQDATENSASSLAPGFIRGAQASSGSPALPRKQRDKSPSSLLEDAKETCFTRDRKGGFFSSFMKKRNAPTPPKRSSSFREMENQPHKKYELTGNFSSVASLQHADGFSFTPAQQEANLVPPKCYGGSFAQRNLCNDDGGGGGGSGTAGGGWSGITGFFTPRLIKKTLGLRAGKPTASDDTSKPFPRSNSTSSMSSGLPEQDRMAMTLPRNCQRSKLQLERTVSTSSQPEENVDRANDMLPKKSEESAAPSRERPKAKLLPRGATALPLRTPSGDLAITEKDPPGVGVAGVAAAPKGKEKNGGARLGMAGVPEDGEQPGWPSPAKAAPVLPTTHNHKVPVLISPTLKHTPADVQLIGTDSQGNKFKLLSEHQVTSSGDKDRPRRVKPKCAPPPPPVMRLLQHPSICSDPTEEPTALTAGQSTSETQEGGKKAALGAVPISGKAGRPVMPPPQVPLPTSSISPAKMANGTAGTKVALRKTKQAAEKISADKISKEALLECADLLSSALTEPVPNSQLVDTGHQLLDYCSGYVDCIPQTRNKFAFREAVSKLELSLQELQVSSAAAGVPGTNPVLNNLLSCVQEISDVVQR
# Sequence of UniProt Q8WXR4 (whole entry, looked up): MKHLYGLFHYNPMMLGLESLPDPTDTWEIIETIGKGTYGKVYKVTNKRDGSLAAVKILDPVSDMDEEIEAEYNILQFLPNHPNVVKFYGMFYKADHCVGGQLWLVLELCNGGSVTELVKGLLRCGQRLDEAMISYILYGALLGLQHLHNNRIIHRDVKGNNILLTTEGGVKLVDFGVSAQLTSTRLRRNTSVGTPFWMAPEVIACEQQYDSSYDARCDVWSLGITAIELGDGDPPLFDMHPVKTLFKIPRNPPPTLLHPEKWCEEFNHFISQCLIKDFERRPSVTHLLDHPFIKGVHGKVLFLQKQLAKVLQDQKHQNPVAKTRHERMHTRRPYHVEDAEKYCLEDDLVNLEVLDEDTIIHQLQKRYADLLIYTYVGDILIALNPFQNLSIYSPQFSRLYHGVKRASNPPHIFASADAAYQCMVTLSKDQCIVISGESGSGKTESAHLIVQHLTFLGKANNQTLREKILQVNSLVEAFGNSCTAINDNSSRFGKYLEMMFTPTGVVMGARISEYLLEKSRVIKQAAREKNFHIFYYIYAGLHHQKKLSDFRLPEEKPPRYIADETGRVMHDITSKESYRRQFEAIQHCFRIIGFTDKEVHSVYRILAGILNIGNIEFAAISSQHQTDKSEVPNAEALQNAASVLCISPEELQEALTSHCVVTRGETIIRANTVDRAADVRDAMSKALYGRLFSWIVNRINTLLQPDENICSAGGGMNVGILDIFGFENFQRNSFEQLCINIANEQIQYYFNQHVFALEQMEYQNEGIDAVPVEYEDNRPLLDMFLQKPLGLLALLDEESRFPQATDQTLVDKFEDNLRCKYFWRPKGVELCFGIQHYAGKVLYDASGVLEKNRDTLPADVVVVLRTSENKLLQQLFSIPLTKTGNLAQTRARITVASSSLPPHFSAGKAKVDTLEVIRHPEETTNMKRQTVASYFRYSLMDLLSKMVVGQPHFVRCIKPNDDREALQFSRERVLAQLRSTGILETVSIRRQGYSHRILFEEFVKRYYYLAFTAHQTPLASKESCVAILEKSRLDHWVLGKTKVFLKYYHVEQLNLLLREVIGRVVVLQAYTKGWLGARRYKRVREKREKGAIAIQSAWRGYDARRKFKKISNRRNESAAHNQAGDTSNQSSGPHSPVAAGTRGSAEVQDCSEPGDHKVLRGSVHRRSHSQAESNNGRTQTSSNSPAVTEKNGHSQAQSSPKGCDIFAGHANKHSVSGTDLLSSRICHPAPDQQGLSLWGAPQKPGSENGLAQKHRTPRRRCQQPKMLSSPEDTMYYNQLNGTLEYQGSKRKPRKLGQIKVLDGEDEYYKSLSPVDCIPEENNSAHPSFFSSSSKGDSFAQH
# Sequence of UniProt P51817 (whole entry, looked up): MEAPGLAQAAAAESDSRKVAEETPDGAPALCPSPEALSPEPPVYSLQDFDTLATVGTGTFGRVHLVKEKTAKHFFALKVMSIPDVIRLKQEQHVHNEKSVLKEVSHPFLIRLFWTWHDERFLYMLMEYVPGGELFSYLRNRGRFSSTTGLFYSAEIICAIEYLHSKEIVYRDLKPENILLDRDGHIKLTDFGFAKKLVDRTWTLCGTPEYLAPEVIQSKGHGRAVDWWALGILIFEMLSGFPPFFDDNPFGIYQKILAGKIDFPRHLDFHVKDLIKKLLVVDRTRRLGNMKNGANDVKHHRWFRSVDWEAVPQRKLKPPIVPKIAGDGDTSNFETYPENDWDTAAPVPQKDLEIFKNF

# Set 1 — technique: competition with immobilised ligand; tested at: 1 µM
# SMILES: CC(=O)C1=C(C)N(c2cccc(C(F)(F)F)c2)C(=O)N[C@@H]1c1ccc(C#N)nc1
target,read-out,remaining binding [%]
"BLK (Homo sapiens, UniProt P51451)",cell-free assay,95.8
"Tyrosine-protein kinase JAK3, JH1 (JAK3, Homo sapiens, UniProt P52333)",cell-free assay,70.5
"EGFR (Homo sapiens, UniProt P00533, A750P/del747-749)",cell-free assay,80
"ACVR2A (Homo sapiens, UniProt P27037)",cell-free assay,85.7
"PIP5K1C (Homo sapiens, UniProt O60331)",cell-free assay,100
"INSRR (Homo sapiens, UniProt P14616)",cell-free assay,99.6
"NUAK1 (Homo sapiens, UniProt O60285)",cell-free assay,93.2
"FLT3 (Homo sapiens, UniProt P36888, D835V)",cell-free assay,64.2
"PIK3C3 (Homo sapiens, UniProt Q8NEB9)",cell-free assay,100
"CAMKK2 (Homo sapiens, UniProt Q96RR4)",cell-free assay,100
"Myosin-IIIb (MYO3B, Homo sapiens, UniProt Q8WXR4)",binding,78.3
"EPHB2 (Homo sapiens, UniProt P29323)",cell-free assay,100
"KIT (Homo sapiens, UniProt P10721, D816H)",cell-free assay,100
"RIOK1 (Homo sapiens, UniProt Q9BRS2)",cell-free assay,87.5
"ABL2 (Homo sapiens, UniProt P42684)",cell-free assay,100
"TNNI3K (Homo sapiens, UniProt Q59H18)",cell-free assay,99.7
"PRKX (Homo sapiens, UniProt P51817)",cell-free assay,100
"PLK4 (Homo sapiens, UniProt O00444)",cell-free assay,82.7
"LYN (Homo sapiens, UniProt P07948)",cell-free assay,100

# Set 2 — read-out: enzyme activity; action: inhibitor; tested at: 0.5 µM; baseline: control
# Target: Serine/threonine-protein kinase DCLK2 (DCLK2, Homo sapiens, UniProt Q8N568)
# Sequence of UniProt Q8N568 (whole entry, looked up): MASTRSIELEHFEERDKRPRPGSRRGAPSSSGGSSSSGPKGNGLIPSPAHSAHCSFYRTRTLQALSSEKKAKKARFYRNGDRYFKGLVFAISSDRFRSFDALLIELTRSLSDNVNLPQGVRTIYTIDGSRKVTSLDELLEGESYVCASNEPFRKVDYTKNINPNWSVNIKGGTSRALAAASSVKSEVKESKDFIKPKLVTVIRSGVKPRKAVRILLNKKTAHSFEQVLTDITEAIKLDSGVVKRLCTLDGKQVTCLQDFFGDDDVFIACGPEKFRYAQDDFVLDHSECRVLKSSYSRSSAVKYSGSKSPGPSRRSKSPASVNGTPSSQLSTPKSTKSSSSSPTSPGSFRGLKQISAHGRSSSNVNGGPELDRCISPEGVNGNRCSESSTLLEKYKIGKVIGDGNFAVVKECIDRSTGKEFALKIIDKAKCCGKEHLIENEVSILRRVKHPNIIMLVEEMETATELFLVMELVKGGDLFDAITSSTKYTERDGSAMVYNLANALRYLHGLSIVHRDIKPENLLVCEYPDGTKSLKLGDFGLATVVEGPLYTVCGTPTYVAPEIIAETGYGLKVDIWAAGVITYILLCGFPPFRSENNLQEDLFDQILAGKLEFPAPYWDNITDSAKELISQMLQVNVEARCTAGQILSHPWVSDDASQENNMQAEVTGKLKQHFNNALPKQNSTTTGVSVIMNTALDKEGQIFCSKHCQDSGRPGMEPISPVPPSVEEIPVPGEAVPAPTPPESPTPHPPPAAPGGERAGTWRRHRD
SMILES,remaining activity [%]
C#Cc1cccc(Nc2ncnc3cc(OCCOC)c(OCCOC)cc23)c1,102
COc1cc2ncnc(Nc3ccc(F)c(Cl)c3)c2cc1OCCCN1CCOCC1,101
Nc1ncnc2n[nH]c(Nc3ccc(F)cc3)c12,99.5
O=C(Nc1cccc(Nc2cc(Nc3cccc(C(F)(F)F)c3)ncn2)c1)C1CC1,101
Cc1ccc(Nc2nccc(N(C)c3ccc4c(C)n(C)nc4c3)n2)cc1S(N)(=O)=O,102
Cc1cccc(-c2[nH]c(C(C)(C)C)nc2-c2ccc3c(c2)OCO3)n1,101
Oc1ccc(-c2nc(-c3ccncc3)c(-c3ccc(F)cc3)[nH]2)cc1,102
CO[C@H]1C[C@@H]2CC[C@@H](C)[C@@](O)(O2)C(=O)C(=O)N2CCCC[C@H]2C(=O)O[C@H]([C@H](C)C[C@@H]2CC[C@@H](O)[C@H](OC)C2)CC(=O)[C@H](C)/C=C(\C)[C@@H](O)[C@@H](OC)C(=O)[C@H](C)C[C@H](C)/C=C/C=C/C=C/1C,99.2
COc1cc2nccc(Oc3ccc(NC(=S)NC(=O)c4ccccc4C)cc3)c2cc1OC,91.5
NCCNc1ncc(C(N)=O)c(Nc2cccc(C(F)(F)F)c2)n1,92.8
O=C(CCCc1ccc(-c2ccccc2F)cc1)Nc1ccc(O)cc1,96.1
Cn1c2ccccc2c2c3c(c4c5ccccc5n(CCC#N)c4c21)CNC3=O,84.7

# Set 3 — technique: RNA Bind-n-Seq; molecule type: RNA; medium: in vitro; tested at: 200 nM; notes: whole 134-nt RNA, ends assumed; together with: 150 mM KCl; baseline: input library; reading: higher = stronger binding
# Target: Fragile X messenger ribonucleoprotein 1, C-terminal low-complexity region (Fmr1, Mus musculus, UniProt P35922)
# Constant ends, left off below: GGGAGUUCUACAGUCCGACGAUC … UGGAAUUCUCGGGUGUCAAGG
Oligonucleotide,log2 enrichment
UCCUGUGCUACACAUCGUAUGUACCGAAUCGGGGAAAGGGGUUUUUUUGGGGAAAGGGGAAAGUAUUAUGUUACGCCGUUCGGAUCUGCA,0.723
UCAAGUCCUGUGCUACACAUCGUAUGUACCGAAUCGGUUUUUGGUUUGGUUUGGAAAGUAUUAUGUUACGCCGUUCGGAUCUGCACUUCC,-0.633
UCAAGUCCUGUGCUACACAUCGUAUGUACCGAAUCGGGAAAGGGAGGGUUUGGGAAAGUAUUAUGUUACGCCGUUCGGAUCUGCACUUCC,1.07
CCUGUGCUACACAUCGUAUGUACCGAAUCAAACCCCCCCAAAUUUUUUUAAACCCCCAAAAAAGUAUUAUGUUACGCCGUUCGGAUCUGC,0.0565
GUCCUGUGCUACACAUCGUAUGUACCGAAUCGGAAAAAGGGGAAAAAGGGGAAAAAGGAAAGUAUUAUGUUACGCCGUUCGGAUCUGCAC,-0.101
GUCCUGUGCUACACAUCGUAUGUACCGAAUCGGGUUUUUGGGGUUUUUGGUUUUUGGGAAAGUAUUAUGUUACGCCGUUCGGAUCUGCAC,-0.222
GCAGGAAGUAAAAACAAAUGGAAAUGCUUCGGAUAGUGGCAGGGGUCGGGGUUGCUAAGGAAAGGGUGGGAUGGGAGUGGGUAAAGAGUU,0.285
CACAGACAACACGCACCCACACAGACACAGAGGGAAGGGGUUGGGAUGGGGACAGGGUGCACAGCAGGGCGGGGUAGGACCCCAGCACCU,1.17

# Set 4 — technique: RNA Bind-n-Seq; molecule type: RNA; medium: in vitro; tested at: 365 nM; baseline: no-protein control; reading: higher = stronger binding
# Target: RNA binding protein fox-1 homolog 2, RRM domain, GST-SBP tag (RBFOX2, Homo sapiens, UniProt O43251-10, residues 100-194)
# Notes: natural RNA segment, single round, ends assumed
# Constant ends, left off below: GGGAGUUCUACAGUCCGACGAUC … UGGAAUUCUCGGGUGCCAA
# Target sequence (chain): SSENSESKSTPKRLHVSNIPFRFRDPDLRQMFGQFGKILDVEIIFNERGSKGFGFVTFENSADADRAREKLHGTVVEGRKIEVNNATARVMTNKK
Oligonucleotide,RBNS enrichment (R)
CUGUUUUGUUGUUUGAUUCAGCAAAAAUCUCCCAGUGACAACAUCGCAAUAGUUUUUUACUUCUCUUAGGUGGCUCUGGGAAUGGGAGAGGGGUAGGAUGUACAGGGGUA,1.15
AAGAAUCAAUAGCAGCAUCUAAUCUCCCAGGGCUCCCUCCCACCAGCACCUGUGGUGGCUGCAAGUGGAAUCCUGGGGCCAAGGCUGCAGCUCAGGGCAAUGGCAGACCA,0.582
UUUCUGGGAUUAUACAAAUUCCUUUUUAUAUAAAAGUAUAUUGUUUAAAACAGUAGCUAUAGCCAUUAACCAAAGGACAGAUGAUAUAUAUAUAUAUGAUAUAUAUAUAU,0.603
UUGGAAUGUGACACAGCCUUUUUGAUCAUUUCUUUGAUGUGAAAAGCAUCUUUUGGUUAUCAGUUAAAUUGAGGUGGACAUUAUUUCCCCAAUUUCACAACAGGAUUCAU,0.307
CGAGAAGCCUUACAAAUGUGAGGUUUGCAGCAAGGCCUUUUCCCAGAGCUCUGACCUCAUCAAACACCAGCGCACGCAUACAGGCGAGCGGCCCUACAAGUGUCCCAGGU,0.397
AUCAAAAGUGAAUAAUGUAUGAAUGAGAGCUGUAAGAAGGAUUUUUAUUUUGUUAUAAUUUAGUUACCAUUUUCAGUGUUAUUUCAAAGGUUCUUUGAAGAAUUUUGGGG,0.693
AGCCACAGCUUAGGCCCUCAGCCUCACUCCCUGGCUUGCUCAGUGCCUACAGCCCUGUUACCUGAUACCUGUGCUUUAUCCCAGGGGUGGGCAGACCUCUUAACCUUAUA,0.621
UGGCGCGAGAGCGCCUUGACACCUGUACCAAGCAAGCCACCCACUGCCAAGAGAUGUGAUAUAUAAGUGUAUAUAUUGUGCUGUGUUUGGGACCCUCCUCAUACAGCUCG,0.359

# A few entries again (set 1):
target,read-out,remaining binding [%]
"Myosin-IIIb (MYO3B, Homo sapiens, UniProt Q8WXR4)",binding,78.3
"EPHB2 (Homo sapiens, UniProt P29323)",cell-free assay,100
"KIT (Homo sapiens, UniProt P10721, D816H)",cell-free assay,100
"RIOK1 (Homo sapiens, UniProt Q9BRS2)",cell-free assay,87.5
"ABL2 (Homo sapiens, UniProt P42684)",cell-free assay,100
"TNNI3K (Homo sapiens, UniProt Q59H18)",cell-free assay,99.7
"PRKX (Homo sapiens, UniProt P51817)",cell-free assay,100
